# Measurements pooled from the literature.
# Parts stem from different laboratories: compare values within a part only.

# Study 1
# Target: RING finger protein unkempt homolog, zinc fingers 1-6, GST-SBP tag (UNK, Homo sapiens, UniProt Q9C0B0, residues 30-357)
# Method: RNA Bind-n-Seq
# Molecule type: RNA
# Matrix: in vitro
# Concentration: not given
# Setting: RNA with constant flanks, human and mouse sites, ends assumed
# Baseline: input RNA pool
# Reading: higher = stronger binding
# Shared flanks, not repeated: GGGAGUUCUACAGUCCGACGAUC … CAACAGAGGAUUGAGCAUCA
# Residues (chain): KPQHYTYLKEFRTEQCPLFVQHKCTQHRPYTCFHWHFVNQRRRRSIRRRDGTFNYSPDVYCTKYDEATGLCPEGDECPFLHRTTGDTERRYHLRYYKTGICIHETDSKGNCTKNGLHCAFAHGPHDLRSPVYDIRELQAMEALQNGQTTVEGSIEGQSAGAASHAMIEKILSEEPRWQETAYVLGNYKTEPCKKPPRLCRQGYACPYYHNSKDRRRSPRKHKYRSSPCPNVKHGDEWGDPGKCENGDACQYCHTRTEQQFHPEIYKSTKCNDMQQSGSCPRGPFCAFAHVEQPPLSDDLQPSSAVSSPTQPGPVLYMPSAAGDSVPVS
Strand,bound/input enrichment [ratio]
AUCCAGUACUCCAAUCACAAAGAACUAAAGACAGAUAAUACAUUAAACCAACGUGCGCAAGUAGUUCUUCAAGCUGUGACAGCGGUCCAGACAGCAAAUACACCUCUUAGUGGCACCACA,0.475
CUCACGGCCCAGCAUGAAAACUUCAGGAAAAAGCAAAUUGAGGAACUGAAGGGACAGGAAGUUAGCCCUAAAGUUUACUUCAUGAAGCAGACCAUCGGAAACUCCUGUGGUACCAUCGGG,0.0922
AUUUUUGCAAGUUUGGCUUUAUAUGAUGUCAAGGAAAAGAAAAAGAUUUCAGAAAACUUUUAUUUUGACCUUAAUUCUGAGCAGAUGAAAGGGUUGUUACGUCCACAUGUACCACCUGCU,0.291
CGAAAUUGGGAUGACAUGAAACACCUGUGGGACUACACAUUUGGACCAGAGAAACUUAAUAUAGAUACCAGAAAUUGUAAAAUCUUACUCACAGAACCUCCUAUGAACCCAACCAAAAAC,0.559
CACCCCAAAGGUCGCGAUAAUAUUAUUGACCUCUUCCUUUAUCAGCCACAAUAUCUUAAUGCAAUUCAGACAAUGUGUCCACACAUUCUUCGCUAUUUGACUACAGCAGUCAUAACAAAC,0.586
GUUACAGGAAGUCCCUUGCCAUCCUAAAAGCCACCCCACUUCUCUCUAAGGAGAAUGGCCCAGUCCUCUCCCAAGUCCACACAGGGGAGGUGAUAGCAUUGCUUUCGUGUAAAUUAUGUA,0.271
CGUUUCACAUCCAUGACACGACUCUACUAUAGAGAUGCUUCUGCCUGUGUUAUUAUGUUUGACGUCACCAAUGCCACUACUUUCAGCAACAGCCAAAGAUGGAAACAGGAUCUGGACAGC,0.146
UGUUUGUUUGUUUGUAGUCUUGAUGCUCUCCUGUGGUUUACUUCCCUUCUGAUAGGACACUAUAGCCAGUCUCAGCACUCGUAAGUGCGGAGGGCCACAUCCAGGAAAGAAGGCAGAGCC,0.596

# Study 2
# Target: Ras GTPase-activating protein-binding protein 1, C-terminal RGG region (G3BP1, Homo sapiens, UniProt Q13283)
# UniProt Q13283, sequence (whole entry, looked up): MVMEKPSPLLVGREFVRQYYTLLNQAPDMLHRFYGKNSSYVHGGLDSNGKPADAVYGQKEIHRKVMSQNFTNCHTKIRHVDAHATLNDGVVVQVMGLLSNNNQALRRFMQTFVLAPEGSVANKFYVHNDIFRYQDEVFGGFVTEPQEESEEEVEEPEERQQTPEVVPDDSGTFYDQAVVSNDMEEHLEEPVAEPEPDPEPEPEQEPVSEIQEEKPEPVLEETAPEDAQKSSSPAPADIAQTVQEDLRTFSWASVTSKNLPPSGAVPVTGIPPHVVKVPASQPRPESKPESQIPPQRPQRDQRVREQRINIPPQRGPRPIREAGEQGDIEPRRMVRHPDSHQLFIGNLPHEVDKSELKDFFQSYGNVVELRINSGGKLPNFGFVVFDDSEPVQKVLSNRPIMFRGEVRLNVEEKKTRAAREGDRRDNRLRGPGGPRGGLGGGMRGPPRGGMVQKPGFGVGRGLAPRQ
# Method: RNA Bind-n-Seq
# Molecule type: RNA
# Matrix: in vitro
# Concentration: 1 µM
# Setting: whole 134-nt RNA, ends assumed
# With: 150 mM KCl
# Baseline: input library
# Reading: higher = stronger binding
# Shared flanks, not repeated: GGGAGUUCUACAGUCCGACGAUC … UGGAAUUCUCGGGUGUCAAGG
Strand,log2 enrichment
UGGGAGGUGGAUUUUGUUUAUUUUUUUAGCUCAUUUCCAGGGGUGGGAAUUUUUUUUUAAAAUGUGUCAUGAAUAAAGUUGUUUUUGAAA,3.11
UGGCCCUGGUGGCAUGCGGUGAGGAAGAGGUGGCCUCAUGGAUCGUGGUGGUCCCGGUGGAAUGUUCAGAGGUGGCCGUGGUGGAGACAG,1.72
CAAGUCCUGUGCUACACAUCGUAUGUACCGAAUCGGGGUGGGGUUUGGGGAGGGGAAAGUAUUAUGUUACGCCGUUCGGAUCUGCACUUC,3.51
UGGGAGGUGGAUUUUGUUUAUUUUUUUAGCUCAUUUCCAGGGGUGGGAAUUUUUUUUUAAUAUGUGUCAUAAAUAAAGUUGUUUUUGAAA,3.54
CCUGUGCUACACAUCGUAUGUACCGAAUCGGGGCCCCCCGGGGCCCCCCGGGGCCCCCCGGAAAGUAUUAUGUUACGCCGUUCGGAUCUG,-1.91
CCUGUGCUACACAUCGUAUGUACCGAAUCGGGUUUUUUUGGUUUUUUUGGGUUUUUUUGGGAAAGUAUUAUGUUACGCCGUUCGGAUCUG,-1.71
UGUGUGUUAUAUAUUUAUUUUUAAUUGCAGAUGACAGGAUUGGACAUUGAGAAGGACCAGAUUAUUGAGAUGGCCUGUCUGAUAACUGAC,-2.48
CCUCAAGUCCUGUGCUACACAUCGUAUGUACCGAAUCGGUGGUUUUUGGUGGAAAGUAUUAUGUUACGCCGUUCGGAUCUGCACUUCCAG,-0.574
UUCGAAGAGGUUGUGUACCAGGCCAUGGGUGAGUGCCCGGGCCACCGAGGCCACGUGCCUCCACGAGGGGCUGCCUAUGCCCCACCCUGG,-0.953

# Study 3
# Target: Histone acetyltransferase KAT6A, winged helix 2, GST fusion (KAT6A, Homo sapiens, UniProt Q92794, residues 85-181)
# Method: protein binding microarray
# Molecule type: double-stranded DNA, one strand shown
# Matrix: in vitro
# Concentration: not given
# Setting: 8-mer, flanks averaged, mean of 2 arrays, mostly near background
# Baseline: not given
# Reading: higher = stronger binding
# Construct (chain): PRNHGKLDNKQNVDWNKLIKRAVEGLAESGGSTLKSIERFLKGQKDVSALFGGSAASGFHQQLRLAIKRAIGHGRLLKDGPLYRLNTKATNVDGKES
Strand,E-score
CTCCATGA,0.00563
CTCGCTGA,0.00202
GTGGACAA,0.0242
AATCGAAG,0.165
ACACGAAT,0.0934
ATCGACTC,-0.089
AGTATATA,0.0734
GGTGTCAC,0.0283
CTTTAACA,-0.0253
GATACATA,-0.0402
TTGGTAAA,0.116
TGCTTACA,0.0356
ACGCACAC,0.0987
AGTATTAG,0.133
ATTTCTAA,-0.0969
CTGTAGAA,-0.0313
TCCCGAGA,0.116
ACCGCTTA,-0.0373
ACTTGGCG,-0.0664
CAAGGTGC,0.00816
ATAGGAAC,-0.164
AAATCTAG,-0.0692
GCGTAAGC,0.176
TGGTATAA,-0.0698
AAGGCCCG,0.0731

# Study 4
# Target: RNA binding protein fox-1 homolog 2, RRM domain, GST-SBP tag (RBFOX2, Homo sapiens, UniProt O43251-10, residues 100-194)
# Method: RNA Bind-n-Seq
# Molecule type: RNA
# Matrix: in vitro
# Concentration: 365 nM
# Setting: natural RNA segment, single round, ends assumed
# Baseline: no-protein control
# Reading: higher = stronger binding
# Shared flanks, not repeated: GGGAGUUCUACAGUCCGACGAUC … UGGAAUUCUCGGGUGCCAA
# Residues (chain): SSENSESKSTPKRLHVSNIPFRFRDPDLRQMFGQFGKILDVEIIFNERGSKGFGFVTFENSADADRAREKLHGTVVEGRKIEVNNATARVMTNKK
Strand,RBNS enrichment (R)
AAAAUUCCAGUAAUUUCGAAGAAUGUGGUGUUGGUGCUUUCCUAAUAAAGAAAUAAUUUAGCUUGACAAAUGCAGCCUCUUUCUUUGAAUUCUAGAGGAUUGAAACCCUU,0.337
UGGAAAGCAUGGGCCAUUGUCACCCACACGGGGCCAGGCCAGGGCUAGAGGGGUGUGUGGUAGGUCGAUAAGACUGUGCCAGUGCCUGCGGAACCAACACACCCUGCUGC,16.5
AAACGGUUUCCUUUUUGAGAUAUUUUAACAGAGAAGGGGUGGGGGAGAAGCAGAUGAAGCUGUACUACCCAGCCCUCUUCUUGUUUGUAUUUGUUUAGGGUUGUGAGGUU,0.638
UCAGACAAGUCUGGGAUUAGAGCCUCAAGGACAUUGUGUGAUUGCCUCACAUUUGCAGGUAAUAUCAAGCAGCAAACUAAAUUCUGAGAAAUAAACGAGUCUAUUACUGU,0.306
UGUAGACCCUGCACAAUCUCUUGGUGCUAUCUAGCCAUUACCCCCAUUUUUUUUUUAAAGGCCAUCUGAAAUUCCAUUUGUCAUGGUGGGAAGCAUUUUGGAUAUGAUGC,2.03
GUGGGUGCCGAGAAAGGAUCUGCCACCACCCUGACAUUGUGUUUUGGAACAGAGUUUUCUGAGAAAACAUUUUCAAGUUAAAGGAAAAUGCUAAGUCUGGCAUGGUAGUC,0.723
GGUAAUGUGGGAUAGUAAUCUCAGUGAAAAGCAAACAGCGCAGGGUCUUGGAAGGGUGGUCUUUAUACAGGUUUUACUGUAAUGGUAAGGAUCGACUCGAGACAGUAUUA,0.589
AGGGUCAUUGUCCCCACAAUGUGCCAGUCGACUAUUUGCACUUACCUUGUCCUAUAUAUCCGUACGGAGGUGUGCAAUUCCUCGUGUCAGUAGCCUUGUGACACUGAACC,0.314
